Measured values pooled from the literature.
Compare with care: the assays were run in different laboratories. ± marks the error that the study gave.
metK 1-426: metK 1-426 (Sinorhizobium meliloti, UniProt Q92SI4)
EXOSC3 1-275: EXOSC3 fragment (Homo sapiens)
B1: UGT1A9 (Homo sapiens, UniProt O60656); chain GKLLVVPMDGSHWFTMRSVVEKLILRGHEVVVVMPEVSWQLGRSLNCTVKTYSTSYTLEDLDREFKAFAHAQWKAQVRSIYSLLMGSYNDIFDLFFSNCRSLFKDKKLVEYLKESSFDAVFLDPFDNCGLIVAKYFSLPSVVFARGILCHYLEEGAQCPAPLSYVPRILLGFSDAMTFKERVRNHIMHLEEHLLCHRFFKNALEIASEILQTPVTEYDLYSHTSIWLLRTDFVLDYPKPVMPNMIFIGGINCHQGKPLPMEFEAYINASGEHGIVVFSLGSMVSEIPEKKAMAIADALGKIPQTVLWRYTGTRPSNLANNTILVKWLPQNDLLGHPMTRAFITHAGSHGVYESICNGVPMVMMPLFGDQMDNAKRMETKGAGVTLNVLEMTSEDLENALKAVINDKSYKENIMRLSSLHKDRPVEPLDLAVFWVEFVMRHKGAPHLRPAAHDLTWYQYHSLDVIGFLLAVVLTVAFITFKCCAYGYRKCLGKKGRVKKAHKSKTH
UniProt P19466, sequence (whole entry, unmodified, looked up): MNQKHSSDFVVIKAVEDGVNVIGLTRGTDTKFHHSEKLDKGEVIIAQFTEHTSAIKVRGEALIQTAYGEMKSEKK
UniProt O13988, sequence (whole entry, looked up): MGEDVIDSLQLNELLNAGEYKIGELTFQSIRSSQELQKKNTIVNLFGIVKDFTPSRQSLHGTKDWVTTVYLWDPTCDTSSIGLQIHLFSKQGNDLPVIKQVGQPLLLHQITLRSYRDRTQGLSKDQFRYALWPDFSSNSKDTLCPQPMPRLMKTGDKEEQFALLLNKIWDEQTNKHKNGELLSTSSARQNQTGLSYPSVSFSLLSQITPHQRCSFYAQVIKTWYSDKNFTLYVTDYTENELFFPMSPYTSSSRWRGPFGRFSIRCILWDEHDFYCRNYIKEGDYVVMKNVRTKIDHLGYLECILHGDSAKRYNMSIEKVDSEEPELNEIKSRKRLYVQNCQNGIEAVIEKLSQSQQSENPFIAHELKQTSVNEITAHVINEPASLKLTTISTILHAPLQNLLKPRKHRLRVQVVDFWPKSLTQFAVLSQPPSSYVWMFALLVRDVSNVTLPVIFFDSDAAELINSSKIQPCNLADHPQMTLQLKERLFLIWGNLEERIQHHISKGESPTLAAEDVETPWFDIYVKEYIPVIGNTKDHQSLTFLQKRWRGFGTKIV
UniProt P17676, sequence (whole entry, unmodified, looked up): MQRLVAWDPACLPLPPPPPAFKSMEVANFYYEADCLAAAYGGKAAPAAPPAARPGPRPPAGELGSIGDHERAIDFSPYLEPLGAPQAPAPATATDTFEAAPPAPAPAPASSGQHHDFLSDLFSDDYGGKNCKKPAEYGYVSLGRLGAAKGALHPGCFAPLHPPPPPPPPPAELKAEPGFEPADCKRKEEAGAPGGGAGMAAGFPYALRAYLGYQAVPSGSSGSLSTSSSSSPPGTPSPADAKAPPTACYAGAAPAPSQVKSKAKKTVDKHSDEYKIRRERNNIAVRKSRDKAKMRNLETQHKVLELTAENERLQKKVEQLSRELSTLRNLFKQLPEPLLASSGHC
UniProt P07766, sequence (whole entry, looked up): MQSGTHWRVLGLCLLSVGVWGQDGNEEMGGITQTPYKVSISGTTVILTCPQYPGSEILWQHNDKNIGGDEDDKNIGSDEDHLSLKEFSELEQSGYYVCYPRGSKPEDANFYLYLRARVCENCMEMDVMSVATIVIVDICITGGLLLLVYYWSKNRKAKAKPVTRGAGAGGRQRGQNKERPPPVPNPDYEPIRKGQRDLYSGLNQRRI
UniProt P07271, sequence (whole entry, unmodified, looked up): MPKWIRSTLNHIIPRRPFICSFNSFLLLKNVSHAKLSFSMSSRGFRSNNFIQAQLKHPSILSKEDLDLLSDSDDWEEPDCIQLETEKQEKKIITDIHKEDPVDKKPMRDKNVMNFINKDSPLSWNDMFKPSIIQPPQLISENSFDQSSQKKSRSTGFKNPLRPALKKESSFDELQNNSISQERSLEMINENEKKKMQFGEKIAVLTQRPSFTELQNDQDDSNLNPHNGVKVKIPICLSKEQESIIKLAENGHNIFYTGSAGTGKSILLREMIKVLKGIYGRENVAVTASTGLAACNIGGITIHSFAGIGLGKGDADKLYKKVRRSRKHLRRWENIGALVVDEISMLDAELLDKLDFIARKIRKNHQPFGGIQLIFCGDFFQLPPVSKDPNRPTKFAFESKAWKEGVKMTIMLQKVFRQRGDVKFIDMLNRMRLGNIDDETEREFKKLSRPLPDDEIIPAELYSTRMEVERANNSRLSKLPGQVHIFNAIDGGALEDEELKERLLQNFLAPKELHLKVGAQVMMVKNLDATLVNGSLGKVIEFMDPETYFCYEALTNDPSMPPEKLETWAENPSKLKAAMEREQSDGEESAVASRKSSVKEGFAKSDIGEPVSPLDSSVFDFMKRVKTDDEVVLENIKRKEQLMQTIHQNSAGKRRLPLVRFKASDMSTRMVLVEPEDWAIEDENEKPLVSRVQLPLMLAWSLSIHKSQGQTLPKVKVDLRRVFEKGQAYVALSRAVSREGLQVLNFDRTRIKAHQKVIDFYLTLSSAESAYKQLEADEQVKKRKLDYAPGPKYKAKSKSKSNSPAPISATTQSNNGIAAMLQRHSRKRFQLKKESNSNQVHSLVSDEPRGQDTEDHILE

With `CGGTNGATTC (ssDNA; THF abasic at position 5)` the Kd was 90 nM (yedK 2-222 H160A (Escherichia coli, UniProt P76318); ITC).
`AGGATTGCGCAATAT (dsDNA; blunt, 5mC at CpA)` gave a Kd of 7 ± 2 nM (CEBPB 269-344 V285A (Homo sapiens, UniProt P17676); fluorescence polarization; double-stranded DNA, one strand shown).
For `GGGUAUCGUGCGCAAUUUUUUCAGAAUCGAAAGGUUCAAAGUACAAAUAAGCAUAUAAGGAAAAGAGAGAAUGGCUAAGGGGCAAUCUUUACAAGAUCCGUUC (structured RNA)`, the Kd was 2 ± 0.6 nM (hfq fragment (Escherichia coli); EMSA).
`ATAGACTGGACTGTCGTCNGGAGNGGGGTAGAGTGGGGNTGGGGCTATGGGGCTAGCATCGGATACAGGTC (XNA; AEGIS dP at 19, 24, 39)` gave a Kd of 44 ± 21 nM (CD3E 23-207 (Homo sapiens, UniProt P07766); flow cytometry; Jurkat.E6; 37 °C, apparent, not purified).
`CATTATCCTAAACATAACTTAACTAGTTTAACTTAATTCTTCAATATACC / GGTATATTGAAGAATTAAGTTAAGCTAGTTAAGTTATGTTTAGGATAATG (dsDNA; blunt, T:G mismatch at 27)` gave a Kd of 18.9 ± 0.6 nM (MSH2/MSH6 (Homo sapiens); EMSA; together with: ADP 0.1 mM).
With `B1 (UGT1A9)` the Vmax was 0.00143 µmol/min/mg (Cc1ccc(O)cc1; steady-state kinetics; pH 7.4, 37 °C).
The Kd of `GGGCGGAGUAGCUCAGUAGGUUAGAGCAGAGGAAUCAUAAUCCUUGUGUCGGGGGUUCGAAUCCCUCCUCCGCUACCA (structured RNA)` is reported as 1.3 nM (metK 1-426; filter binding).
With `GAGUUGAGUUGAGUUGAGUUGAGUUGAGUUGAGUUGAGUUGAGUUGAGUUGAGUU (ssRNA; single strand)` the Kd was 1 ± 0.5 nM (mtrB full length assumed (Bacillus subtilis, UniProt P19466); filter binding; together with: L-tryptophan 1 mM).
The Kd of `GGGAGGG (ssRNA)` is reported as 3580 ± 2500 nM (EXOSC3 1-275; MST; apparent).
For `GAGCUGGUGCAUCUAGCGGCUUUCUCCUCCCCAGCCGCUGCAGCAGCUGUUCCCCUCUGGAGGUUUGAAACCUUCACAACUGAAAGGGCCCAAGUUUCUUGUGGCCCUCUUUUUUU (structured RNA)`, the Kd was 45.6 nM (metK 1-426; filter binding).
`AGGATTGCGCAATAT (dsDNA; blunt, 5mC at CpG)` gave a Kd of 20 ± 10 nM (CEBPB 269-344 (Homo sapiens, UniProt P17676); fluorescence polarization; double-stranded DNA, one strand shown).
With `GTGTGTGTGGTG (ssDNA)` the Kd was 11 ± 2.2 nM (PIF1 residues 237-780 (Saccharomyces cerevisiae, UniProt P07271); fluorescence anisotropy).
`UAGUUUAGUUUAGUUUAGUUUAGUUUAGUUUAGUUUAGUUUAGUUUAGUUUAGUU (ssRNA; single strand)` gave a Kd of 115 nM (mtrB full length assumed T30V/K37A (Bacillus subtilis, UniProt P19466); filter binding).
With `GNTTACGGTTACGGT (ssDNA; deoxyinosine at 2)` the Kd was 0.0028 ± 0.0001 nM (pot1 1-555 (Schizosaccharomyces pombe, UniProt O13988); EMSA).
`GTGTGTGTGGTGTGTGTGTGTGGTGTATGTATGACAAGGAAGG / CCTTCCTTGTCATACAT (DNA duplex; 17 bp, 5' overhang 26 nt)` has a Kd of 4.5 nM (PIF1 full length assumed (Saccharomyces cerevisiae, UniProt P07271); single-molecule PIFE; together with: ATP 2 mM).
With `GGGAGGGAGGGAGAGGGA (ssRNA)` the Kd was 2400 ± 1000 nM (EXOSC3 1-275; SPR; apparent).
The Kd of `AGCTGCCAGGCACCAGTGTCA / TGACACTGGTGCTTGGCAGCT (dsDNA; 21-bp, G-T mismatch, dT20 linker)` is reported as 30 ± 4 nM (mutS fragment (Escherichia coli); SPR).
For `GACTACGTACTGTTACGGCTCCATCTCTACCGCAATCAGGCCAGATCTGC / GCAGATCTGGCCTGATTGCGGTAGCGATGGAGCCGTAACAGTACGTAGTC (dsDNA; blunt; fluorescein on T26; T:C mismatch)`, the Kd was 1230 nM (p44/p62 (Chaetomium thermophilum); fluorescence anisotropy; Mg2+ 5 mM).
With `CTGGAGTACAATTCCATTCCATTCCATTCCATTCCATTCCATTCCATTCCATTCCATTCCATTCCATTCCATTCCATTCCATTCCATTCCTAACTTTCTA (dsDNA)` the Kd was 3510 nM (F2 alpha-thrombin (Homo sapiens); ITC; double-stranded DNA, one strand shown; pH 7.0).
With `TGGCGGCATTAATGCCGTTAATTGCACCTTTTTGCGAACATTTATTCAGTGAAATTTTTAATTTGCTGGCTGATATTATTAGTGAATTGCCATTAATATAATTCCGTAACGTTTATCATGTTATCCTAAGGATTATCCGAAAAATAATACCTACGAACATCTTCCAGGATACTCCTGCAGCGAAATATTTGTTTTAAGCTCACTCACATATCGCAACATTTACTTTACTTTAAGACAATTCCAGGCAAATTATACAACACTTTACGGGATAGTAAGTCCGCCTGAAAAATCGCGAGAGTGGCGCATTAGGTGACCCATGTTGTTCCGTTTAGTCATGATGAAATATTCAGGTAAGGGGAATTATCGTTACGCATTGAGTGAGGGTATGCCATGTCAACGATTATTATGGATTTATGTAGTTACACCCGACTAGGTTTAACC (dsDNA)` the Kd was 1230 nM (ydaT full length assumed (Escherichia coli, UniProt P76064); spectral shift; double-stranded DNA, one strand shown; together with: poly(dI-dC)).
